Experimental data of several laboratories.
Several values in a cell are separate wells, animals, samples, runs or records. Numbers after ± are the reported error.
MT-CYB/UQCRFS1: MT-CYB/UQCRFS1 (Homo sapiens, UniProt P00156+P47985)
Sequence of UniProt P00156 (whole entry, looked up): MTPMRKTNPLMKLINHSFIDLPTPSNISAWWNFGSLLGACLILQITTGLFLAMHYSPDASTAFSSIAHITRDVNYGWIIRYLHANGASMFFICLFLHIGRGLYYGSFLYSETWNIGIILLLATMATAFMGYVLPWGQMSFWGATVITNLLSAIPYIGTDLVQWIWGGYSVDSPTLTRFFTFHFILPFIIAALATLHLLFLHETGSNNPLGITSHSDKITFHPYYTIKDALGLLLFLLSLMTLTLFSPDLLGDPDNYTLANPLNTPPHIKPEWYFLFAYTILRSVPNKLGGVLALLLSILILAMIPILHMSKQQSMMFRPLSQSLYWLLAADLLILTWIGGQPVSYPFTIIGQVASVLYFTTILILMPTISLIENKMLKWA
Sequence of UniProt P47985 (whole entry, looked up): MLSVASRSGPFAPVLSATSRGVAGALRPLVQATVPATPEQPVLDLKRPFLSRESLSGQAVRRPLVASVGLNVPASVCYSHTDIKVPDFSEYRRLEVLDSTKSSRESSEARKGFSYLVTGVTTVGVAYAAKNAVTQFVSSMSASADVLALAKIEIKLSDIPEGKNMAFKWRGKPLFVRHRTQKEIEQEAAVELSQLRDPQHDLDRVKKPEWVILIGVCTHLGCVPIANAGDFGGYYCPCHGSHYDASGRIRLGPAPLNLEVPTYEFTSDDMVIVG
PTGDR: Prostaglandin D2 receptor (PTGDR, Homo sapiens, UniProt Q13258)
Sequence of UniProt Q13258 (whole entry, looked up): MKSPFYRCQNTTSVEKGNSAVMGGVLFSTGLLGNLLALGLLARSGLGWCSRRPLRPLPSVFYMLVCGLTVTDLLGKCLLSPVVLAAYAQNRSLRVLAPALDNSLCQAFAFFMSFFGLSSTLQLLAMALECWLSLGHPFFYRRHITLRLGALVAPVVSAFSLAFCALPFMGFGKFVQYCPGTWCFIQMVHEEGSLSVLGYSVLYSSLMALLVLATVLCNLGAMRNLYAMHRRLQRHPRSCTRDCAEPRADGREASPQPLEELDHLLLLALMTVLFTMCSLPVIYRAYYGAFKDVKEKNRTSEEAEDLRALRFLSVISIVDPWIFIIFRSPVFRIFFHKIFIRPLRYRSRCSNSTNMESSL
Dehaloperoxidase B ferric: Dehaloperoxidase B, ferric (Amphitrite ornata, UniProt Q9NAV7)
T1: preQ1-III riboswitch A52G (Faecalibacterium prausnitzii); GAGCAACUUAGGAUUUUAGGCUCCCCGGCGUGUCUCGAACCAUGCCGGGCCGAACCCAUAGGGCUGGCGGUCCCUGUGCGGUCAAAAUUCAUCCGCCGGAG
Sequence of UniProt P18669 (whole entry, looked up): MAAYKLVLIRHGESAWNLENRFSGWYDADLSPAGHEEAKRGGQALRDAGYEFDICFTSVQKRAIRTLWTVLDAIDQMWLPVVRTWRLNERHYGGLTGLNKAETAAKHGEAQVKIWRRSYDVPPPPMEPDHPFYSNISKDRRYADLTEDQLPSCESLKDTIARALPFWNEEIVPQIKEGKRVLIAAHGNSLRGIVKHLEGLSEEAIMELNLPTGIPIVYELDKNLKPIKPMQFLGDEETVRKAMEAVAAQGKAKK
Sequence of UniProt Q16774 (whole entry, unmodified, looked up): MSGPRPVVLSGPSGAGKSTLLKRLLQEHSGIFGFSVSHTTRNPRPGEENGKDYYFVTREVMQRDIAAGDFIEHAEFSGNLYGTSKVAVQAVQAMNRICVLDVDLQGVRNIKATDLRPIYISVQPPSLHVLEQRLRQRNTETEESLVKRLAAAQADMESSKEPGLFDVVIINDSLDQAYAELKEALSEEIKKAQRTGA
Sequence of UniProt Q62351 (whole entry, looked up): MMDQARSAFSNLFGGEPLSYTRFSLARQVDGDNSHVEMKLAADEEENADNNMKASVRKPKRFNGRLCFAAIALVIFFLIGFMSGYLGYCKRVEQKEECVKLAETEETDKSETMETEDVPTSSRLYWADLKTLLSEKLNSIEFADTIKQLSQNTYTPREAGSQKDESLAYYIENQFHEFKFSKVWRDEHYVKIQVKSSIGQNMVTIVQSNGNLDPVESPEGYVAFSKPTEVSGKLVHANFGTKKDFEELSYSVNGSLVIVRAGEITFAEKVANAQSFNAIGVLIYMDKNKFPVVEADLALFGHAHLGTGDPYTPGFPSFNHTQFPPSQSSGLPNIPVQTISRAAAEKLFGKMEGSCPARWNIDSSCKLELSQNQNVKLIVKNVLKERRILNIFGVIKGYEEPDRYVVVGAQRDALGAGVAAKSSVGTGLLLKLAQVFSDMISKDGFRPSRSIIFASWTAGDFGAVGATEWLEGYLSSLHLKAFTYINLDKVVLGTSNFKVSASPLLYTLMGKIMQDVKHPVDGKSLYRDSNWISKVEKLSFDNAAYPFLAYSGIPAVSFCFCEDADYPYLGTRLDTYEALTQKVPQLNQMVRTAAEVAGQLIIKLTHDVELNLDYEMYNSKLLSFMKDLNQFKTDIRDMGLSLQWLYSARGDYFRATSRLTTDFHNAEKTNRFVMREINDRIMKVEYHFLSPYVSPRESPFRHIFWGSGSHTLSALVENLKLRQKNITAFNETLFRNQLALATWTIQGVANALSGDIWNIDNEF
Sequence of UniProt Q8K3Y3 (whole entry, looked up): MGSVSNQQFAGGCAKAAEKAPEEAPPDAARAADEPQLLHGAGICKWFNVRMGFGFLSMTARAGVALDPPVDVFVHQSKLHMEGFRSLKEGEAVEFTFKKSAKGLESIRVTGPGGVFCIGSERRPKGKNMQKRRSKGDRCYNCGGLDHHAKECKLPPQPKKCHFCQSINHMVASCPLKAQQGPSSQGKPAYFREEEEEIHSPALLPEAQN
Sequence of UniProt P11388 (whole entry, looked up): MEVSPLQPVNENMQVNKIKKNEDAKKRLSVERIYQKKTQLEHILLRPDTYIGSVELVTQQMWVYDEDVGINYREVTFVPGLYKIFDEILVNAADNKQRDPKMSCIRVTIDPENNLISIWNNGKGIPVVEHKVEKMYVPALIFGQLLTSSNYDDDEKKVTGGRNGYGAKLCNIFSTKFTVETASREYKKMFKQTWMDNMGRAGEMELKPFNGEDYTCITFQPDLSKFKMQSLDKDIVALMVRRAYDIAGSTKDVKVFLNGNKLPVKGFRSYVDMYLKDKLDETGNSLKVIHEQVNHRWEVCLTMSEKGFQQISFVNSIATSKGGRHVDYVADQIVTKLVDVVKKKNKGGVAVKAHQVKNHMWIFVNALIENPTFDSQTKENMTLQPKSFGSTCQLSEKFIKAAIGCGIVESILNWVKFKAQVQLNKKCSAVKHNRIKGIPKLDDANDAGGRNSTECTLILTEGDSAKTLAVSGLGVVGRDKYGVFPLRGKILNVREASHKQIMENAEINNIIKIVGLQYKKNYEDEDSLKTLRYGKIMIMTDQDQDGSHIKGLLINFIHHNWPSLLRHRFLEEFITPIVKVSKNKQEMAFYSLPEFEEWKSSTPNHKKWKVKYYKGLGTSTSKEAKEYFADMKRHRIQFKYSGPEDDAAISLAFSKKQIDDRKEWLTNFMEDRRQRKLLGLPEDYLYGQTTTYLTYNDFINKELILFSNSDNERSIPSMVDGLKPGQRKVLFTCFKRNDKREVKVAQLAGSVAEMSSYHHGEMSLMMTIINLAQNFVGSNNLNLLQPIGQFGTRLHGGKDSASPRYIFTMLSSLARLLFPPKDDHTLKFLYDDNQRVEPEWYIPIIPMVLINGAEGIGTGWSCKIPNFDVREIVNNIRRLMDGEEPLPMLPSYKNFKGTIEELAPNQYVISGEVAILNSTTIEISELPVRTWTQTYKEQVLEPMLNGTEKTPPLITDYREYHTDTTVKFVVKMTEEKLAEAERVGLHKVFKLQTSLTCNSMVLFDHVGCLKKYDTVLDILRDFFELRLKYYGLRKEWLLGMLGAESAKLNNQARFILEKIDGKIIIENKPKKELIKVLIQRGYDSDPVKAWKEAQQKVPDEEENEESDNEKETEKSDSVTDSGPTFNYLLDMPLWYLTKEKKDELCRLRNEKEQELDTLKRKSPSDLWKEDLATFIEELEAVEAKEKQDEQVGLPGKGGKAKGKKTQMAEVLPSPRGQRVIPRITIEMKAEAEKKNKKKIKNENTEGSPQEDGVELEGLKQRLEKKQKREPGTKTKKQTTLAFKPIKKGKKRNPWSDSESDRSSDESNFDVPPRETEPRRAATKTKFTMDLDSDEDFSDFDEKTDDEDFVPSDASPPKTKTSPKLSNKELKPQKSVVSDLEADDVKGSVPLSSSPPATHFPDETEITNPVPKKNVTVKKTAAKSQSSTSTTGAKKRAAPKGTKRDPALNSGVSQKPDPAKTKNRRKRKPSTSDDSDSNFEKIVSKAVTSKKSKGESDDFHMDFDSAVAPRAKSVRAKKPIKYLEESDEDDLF
Sequence of UniProt Q14145 (whole entry, unmodified, looked up): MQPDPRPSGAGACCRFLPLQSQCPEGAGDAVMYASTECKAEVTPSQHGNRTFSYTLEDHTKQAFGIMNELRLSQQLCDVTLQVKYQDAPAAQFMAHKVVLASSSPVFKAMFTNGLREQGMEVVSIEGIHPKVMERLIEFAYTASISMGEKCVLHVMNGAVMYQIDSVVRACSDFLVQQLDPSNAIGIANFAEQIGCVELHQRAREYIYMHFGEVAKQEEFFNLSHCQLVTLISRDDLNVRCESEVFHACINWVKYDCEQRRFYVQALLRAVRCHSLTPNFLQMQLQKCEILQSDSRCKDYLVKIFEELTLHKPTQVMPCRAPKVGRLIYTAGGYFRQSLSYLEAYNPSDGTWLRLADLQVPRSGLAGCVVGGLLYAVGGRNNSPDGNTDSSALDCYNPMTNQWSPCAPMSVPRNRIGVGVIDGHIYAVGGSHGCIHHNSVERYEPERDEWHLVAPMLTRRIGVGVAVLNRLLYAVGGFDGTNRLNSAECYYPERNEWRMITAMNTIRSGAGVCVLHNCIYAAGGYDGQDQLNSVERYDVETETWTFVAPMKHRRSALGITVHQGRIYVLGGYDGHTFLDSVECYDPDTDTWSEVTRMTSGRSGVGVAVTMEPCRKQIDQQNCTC
Sequence of UniProt P30536 (whole entry, looked up): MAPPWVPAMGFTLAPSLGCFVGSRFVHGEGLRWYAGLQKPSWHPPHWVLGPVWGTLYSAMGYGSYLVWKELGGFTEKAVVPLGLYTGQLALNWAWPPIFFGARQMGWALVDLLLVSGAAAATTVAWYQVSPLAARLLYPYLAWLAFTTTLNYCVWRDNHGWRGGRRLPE

Structure (SMILES) = CC(C)C[C@@H](C=O)NC(=O)[C@H](CC(C)C)NC(=O)[C@H](CC(C)C)NC(=O)OCc1ccccc1; target or system = Protein transport protein Sec61 subunit alpha isoform 1 (Homo sapiens, UniProt P61619); assay = Sec61-dependent translocation, inhibitor, refers to: CD4 signal peptide-FLuc reporter; system = HEK293; conditions = concentration not given, 6 h; how to read = relative to: mock; measurement = FLuc/RLuc ratio; value = 1.15
Structure (SMILES) = Nc1nc2c(ncn2[C@@H]2O[C@H](COP(=O)(O)O)[C@@H](O)[C@H]2O)c(=O)[nH]1; target or system = GUK1 (Homo sapiens, UniProt Q16774, E72A); assay = enzyme activity, NADH-coupled; conditions = 500 µM; measurement = reaction rate; value = 0.303 s⁻¹ and 0.27 s⁻¹ and 0.52 s⁻¹
Structure (SMILES) = CCN1CCC[C@H]1CNC(=O)c1c(O)c(Cl)cc(Cl)c1OC; target or system = Probable G-protein coupled receptor 19 (GPR19, Homo sapiens, UniProt Q15760); assay = β-arrestin recruitment, TANGO luminescence, refers to: GPR19; conditions = concentration not given; how to read = relative to: basal luminescence; measurement = log2 fold change; value = 0.163
Structure (SMILES) = CC[C@@H](C)[C@@H](NC(=O)[C@@H](Cc1ccc(O)cc1)NC(=O)[C@H]1CCCN1C(=O)[C@@H](CCCNC(=N)N)NC(=O)[C@H](N)Cc1c[nH]cn1)C(=O)N[C@H](C)C(=O)N[C@H](Cc1c[nH]cn1)C(=O)N[C@H](CCCNC(=N)N)C(=O)N[C@@H](C(=O)N[C@H](Cc1ccc(O)cc1)C(=O)N[C@H](CO)C(=O)N[C@H](Cc1ccccc1)C(N)=O)C(C)C; target or system = Transferrin receptor protein 1 (Tfrc, Mus musculus, UniProt Q62351); assay = flow cytometry; system = DC2.4; conditions = 2 h, pH 7.4, unit not given; how to read = relative to: 0 h; measurement = surface expression; value = 0.839 and 0.923
Structure (SMILES) = Cc1ccsc1; target or system = THP-1; assay = pyroptotic LDH release; conditions = 2 µM, 40 min, together with: LPS then nigericin; measurement = inhibition; value = -19%
Structure (SMILES) = NCCS(=O)(=O)O; target or system = SLC6A6 (Homo sapiens, UniProt P31641, Y138A); assay = binding, microscale thermophoresis; conditions = 7.81 µM, room temperature, together with: 50 nM labelled protein; how to read = higher = more binding; measurement = normalised MST signal; value = 0.0532
Structure (SMILES) = CCCC(CCC)c1nc2c(Nc3ccc(C#CCCCCCCCCN)cc3)nc3ccccc3c2[nH]1; target or system = DRD1 (Homo sapiens, UniProt P21728); assay = PDSP screening; measurement = off-target affinity; value = inactive
Structure (SMILES) = NC(=O)NOCCCCCCCCCCCCCCCC[P+](c1ccccc1)(c1ccccc1)c1ccccc1.O=C([O-])C(F)(F)F; target or system = MT-CYB/UQCRFS1; assay = complex III-dependent respiration, Seahorse XF96; system = HCT-116; conditions = 0.6 µM, 24 h; how to read = relative to: control; measurement = oxygen consumption rate; value = 80.1%
Structure (SMILES) = O=C(O)c1ccc(Nc2ncc3c(n2)-c2ccc(Cl)cc2C(c2c(F)cccc2F)=NC3)cc1; target or system = human EGFR(L861Q); assay = kinase activity; conditions = 1 µM; measurement = remaining activity; value = 92%
Structure (SMILES) = NC(=O)NOCCCCCCCCCCCC[P+](c1ccccc1)(c1ccccc1)c1ccccc1.O=C([O-])C(F)(F)F; target or system = MT-CYB/UQCRFS1; assay = complex III-dependent respiration, Seahorse XF96; system = HCT-116; conditions = 3 µM, 24 h; how to read = relative to: control; measurement = oxygen consumption rate; value = 35.9 ± 11.5%
Structure (SMILES) = CC[C@H](C)[C@@H]1NC(=O)[C@H](C)NC(=O)[C@H]([C@@H](C)CC)NC(=O)[C@H](CCC(N)=O)NC(=O)[C@H](C)NC(=O)[C@H](CCCNC(=N)N)NC(=O)[C@H](C(C)C)NC(=O)[C@H](CC(C)C)NC(=O)[C@H](CCC(=O)O)NC(=O)[C@H](CCCNC(=N)N)NC(=O)CNC(=O)[C@@H](NC(=O)[C@H](CC(C)C)NC(=O)[C@H](CCCCN)NC(=O)[C@@H](NC(=O)[C@@H](NC(=O)[C@H](CCC(=O)O)NC(=O)[C@H](CCC(=O)O)NC(=O)[C@H](CCSC)NC(=O)[C@H](Cc2c[nH]c3ccccc23)NC(=O)[C@H](CO)NC(=O)[C@@H](N)CC(=O)O)C(C)C)[C@@H](C)CC)CSSC[C@@H]2NC(=O)[C@@H](NC(=O)[C@H](CCCCN)NC(=O)[C@H](CC(N)=O)NC(=O)[C@H](C)NC(=O)[C@H](CC(C)C)NC(=O)[C@H](C)NC(=O)[C@H](CO)NC(=O)[C@H](Cc3ccc(O)cc3)NC(=O)[C@H](CC(C)C)NC(=O)[C@H](CCC(N)=O)NC(=O)c3ccc(-c4c5ccc(=[N+](C)C)cc-5oc5cc(N(C)C)ccc45)c(C(=O)[O-])c3)CSSC[C@H](NC(=O)CNC(=O)[C@H](C(C)C)NC(=O)[C@H](Cc3c[nH]cn3)NC2=O)C(=O)N[C@@H]([C@@H](C)O)C(=O)N[C@@H](CCCCN)C(=O)N[C@@H](CCCNC(=N)N)C(=O)N[C@@H](CO)C(=O)N[C@@H](CC(C)C)C(=O)N[C@@H](C)C(=O)N[C@@H](CCCNC(=N)N)C(=O)N[C@@H](Cc2ccccc2)C(=O)N[C@H](C(=O)O)CSSC[C@@H](C(=O)NCC(=O)N[C@@H](CCSC)C(=O)N[C@@H](CO)C(=O)N[C@H](C(=O)N[C@@H](Cc2c[nH]c3ccccc23)C(=O)N[C@@H](CO)C(=O)O)[C@@H](C)O)NC1=O; target or system = Relaxin receptor 1 (RXFP1, Homo sapiens, UniProt Q9HBX9, F76A/Y80A); assay = binding, NanoBRET; conditions = concentration not given, together with: relaxin 1 µM; measurement = fast dissociation fraction; value = 64.6%
Structure (SMILES) = Cc1cc2ccccc2n1CCNC(=O)c1ccc(N2CCCCC2)cc1; target or system = PTGDR; assay = receptor antagonism; system = C6 glioma; how to read = relative to: EP2 over DP1; measurement = selectivity ratio; value = > 275 fold
Structure (SMILES) = O=CNc1ccc(Br)cc1C=O; target or system = Dehaloperoxidase B ferric; assay = product, HPLC; conditions = 5 min, pH 7, 25 °C, enzyme 10 µM, together with: 5-bromoindole and H2O2 500 µM each; measurement = product formed; value = 1.7 M
Structure (SMILES) = O=c1nc(SCc2cc(F)cc(C(F)(F)F)c2)nc(SCc2ccc3sccc3c2)[nH]1; target or system = TOP2A (Homo sapiens, UniProt P11388); assay = DNA relaxation; conditions = 15.6 µM, replicate 1; measurement = relaxed DNA; value = 48.4%
Structure (SMILES) = CCCC(C)N1CCC(N(Cc2cccc(NC(=O)CCl)c2)C(=O)Nc2cccc(C(F)(F)F)c2)CC1 (stereo not shown); target or system = DCN1-like protein 1 (Homo sapiens, UniProt Q96GG9); assay = covalent binder, LC-TOF mass spectrometry; conditions = 60 µM, overnight, 4 °C, together with: DCN1-like protein 1 30 µM; measurement = covalent adduct formation; value = 10%
Structure (SMILES) = CCCCC[C@H](O)/C=C/[C@H]1C(=O)C[C@H](O)[C@@H]1C/C=C\CCCC(=O)O; target or system = PTGDR; assay = agonist; conditions = 0.1562 µM; measurement = activation; value = 99.9%
Structure (SMILES) = CN1CCN(c2cc(-c3ccncc3)c(-c3ccc4ccccc4c3)nn2)CC1; target or system = BDKRB2 (Homo sapiens, UniProt P30411); assay = agonist, FLIPR; conditions = 12.5 µM; measurement = activation; value = -1.3%
Structure (SMILES) = OCCN(CCO)c1nc(N2CCCCC2)c2nc(N(CCO)CCO)nc(N3CCCCC3)c2n1; target or system = TSPO (Homo sapiens, UniProt P30536); assay = frontal affinity chromatography; system = platelet membrane affinity column; conditions = concentration not given, Abcam isolation kit; measurement = number of binding sites; value = 44 nmol
Structure (SMILES) = O=C1Nc2ccc(Br)cc2C1=O; target or system = Dehaloperoxidase B ferric; assay = product, HPLC; conditions = together with: 5-bromoindole 500 µM, H2O2 100 µM; measurement = share of total products; value = 3.1%
Structure (SMILES) = CC(=O)N[C@@H](C)C(=O)N[C@@H](CC(N)=O)C(=O)NCC(=O)N[C@@H](CC(N)=O)C(=O)N[C@@H](C)C(=O)N[C@@H](CCC(=O)O)C(=O)N[C@@H](CC(N)=O)C(=O)N[C@@H](CCC(=O)O)C(=O)N[C@@H](CCC(=O)O)C(=O)N[C@@H](CC(N)=O)C(=O)NCC(=O)N[C@@H](CCC(=O)O)C(=O)N[C@@H](CCC(N)=O)C(=O)N[C@@H](CCC(=O)O)C(=O)N[C@@H](C)C(=O)N[C@@H](CC(=O)O)C(=O)N[C@@H](CC(N)=O)C(=O)N[C@@H](CCC(=O)O)C(=O)N[C@H](C(=O)N[C@@H](CC(=O)O)C(N)=O)C(C)C; target or system = Kelch-like ECH-associated protein 1, Kelch domain (KEAP1, Homo sapiens, UniProt Q14145); assay = binding, ITC; conditions = pH 7, 298.15 K; measurement = TΔS; value = -7.66 kcal/mol
Structure (SMILES) = NC(=O)NOCCCCCCCCCCCCCCCCCCCC[P+](c1ccccc1)(c1ccccc1)c1ccccc1.O=C([O-])C(F)(F)F; target or system = MT-CYB/UQCRFS1; assay = complex III-dependent respiration, Seahorse XF96; system = HCT-116; conditions = 0.5 µM, 24 h; how to read = relative to: control; measurement = oxygen consumption rate; value = 102%
Structure (SMILES) = NCc1c[nH]c2nc(N)[nH]c(=O)c12; target or system = T1, preQ1-III riboswitch A52G (Faecalibacterium prausnitzii); assay = ITC; conditions = NaCl 100 mM, apparent, single-site fit; measurement = Kd; value = 9.8 nM
Structure (SMILES) = Cn1cnc([N+](=O)[O-])c1SCc1csc2ccccc12; target or system = Protein lin-28 homolog A (Mus musculus, UniProt Q8K3Y3); measurement = Hill slope; value = -1.1
Structure (SMILES) = CC(=O)c1c(C)c2cnc(Nc3ccc(N4CCN(CCCOc5ccc(CN6CCC(c7ccc8c(c7)CN(C7CCC(=O)NC7=O)C8=O)CC6)cc5)CC4)cn3)nc2n(C2CCCC2)c1=O (stereo not shown); target or system = CRBN/Zinc finger protein Helios (Homo sapiens, UniProt Q96SW2+Q9UKS7); assay = degrader, immunoblot, refers to: Helios; system = Jurkat; conditions = 4 h; measurement = Dmax; value = 43%
Structure (SMILES) = O=C(COP(=O)(O)O)[C@@H](O)[C@H](O)[C@H](O)COP(=O)(O)O; target or system = Phosphoglycerate mutase 1 (Homo sapiens, UniProt P18669); assay = activator; conditions = 0.3125 mM, wild-type enzyme, unit not given; how to read = relative to no compound; measurement = enzyme activity; value = 2.33 and 2.07 and 2.13
Structure (SMILES) = O=C1CCSC1; target or system = THP-1; assay = pyroptotic LDH release; conditions = 2 µM, 40 min, together with: LPS then nigericin; measurement = inhibition; value = 47.4%
Structure (SMILES) = NC(=O)NOCCCCCCCCCCCCCC[P+](c1ccccc1)(c1ccccc1)c1ccccc1.O=C([O-])C(F)(F)F; target or system = MT-CYB/UQCRFS1; assay = complex III-dependent respiration, Seahorse XF96; system = HCT-116; conditions = 0.1 µM, 24 h; how to read = relative to: control; measurement = oxygen consumption rate; value = 83.9 ± 10%
Structure (SMILES) = COc1cc(F)ccc1-c1ncnc(Nc2cccc(C[S@](C)(=N)=O)c2)n1; target or system = CAMK4 (Homo sapiens, UniProt Q16566); assay = kinase activity; conditions = 10 µM, together with: 10 µM ATP; measurement = remaining activity; value = 80%

Excerpt of the above:
Structure (SMILES) = CC(=O)c1c(C)c2cnc(Nc3ccc(N4CCN(CCCOc5ccc(CN6CCC(c7ccc8c(c7)CN(C7CCC(=O)NC7=O)C8=O)CC6)cc5)CC4)cn3)nc2n(C2CCCC2)c1=O (stereo not shown); target or system = CRBN/Zinc finger protein Helios (Homo sapiens, UniProt Q96SW2+Q9UKS7); assay = degrader, immunoblot, refers to: Helios; system = Jurkat; conditions = 4 h; measurement = Dmax; value = 43%
Structure (SMILES) = O=C(COP(=O)(O)O)[C@@H](O)[C@H](O)[C@H](O)COP(=O)(O)O; target or system = Phosphoglycerate mutase 1 (Homo sapiens, UniProt P18669); assay = activator; conditions = 0.3125 mM, wild-type enzyme, unit not given; how to read = relative to no compound; measurement = enzyme activity; value = 2.33 and 2.07 and 2.13
Structure (SMILES) = O=C1CCSC1; target or system = THP-1; assay = pyroptotic LDH release; conditions = 2 µM, 40 min, together with: LPS then nigericin; measurement = inhibition; value = 47.4%
Structure (SMILES) = NC(=O)NOCCCCCCCCCCCCCC[P+](c1ccccc1)(c1ccccc1)c1ccccc1.O=C([O-])C(F)(F)F; target or system = MT-CYB/UQCRFS1; assay = complex III-dependent respiration, Seahorse XF96; system = HCT-116; conditions = 0.1 µM, 24 h; how to read = relative to: control; measurement = oxygen consumption rate; value = 83.9 ± 10%
